Experimental data of several laboratories.
Each numbered part is a random draw from the data of one study; scales do not carry over between parts.

Block 1
Target: Sal-like protein 4, full length isoform A (SALL4, Homo sapiens, UniProt Q9UJQ4, residues 1-1053)
Sequence of UniProt Q9UJQ4 (whole entry, looked up): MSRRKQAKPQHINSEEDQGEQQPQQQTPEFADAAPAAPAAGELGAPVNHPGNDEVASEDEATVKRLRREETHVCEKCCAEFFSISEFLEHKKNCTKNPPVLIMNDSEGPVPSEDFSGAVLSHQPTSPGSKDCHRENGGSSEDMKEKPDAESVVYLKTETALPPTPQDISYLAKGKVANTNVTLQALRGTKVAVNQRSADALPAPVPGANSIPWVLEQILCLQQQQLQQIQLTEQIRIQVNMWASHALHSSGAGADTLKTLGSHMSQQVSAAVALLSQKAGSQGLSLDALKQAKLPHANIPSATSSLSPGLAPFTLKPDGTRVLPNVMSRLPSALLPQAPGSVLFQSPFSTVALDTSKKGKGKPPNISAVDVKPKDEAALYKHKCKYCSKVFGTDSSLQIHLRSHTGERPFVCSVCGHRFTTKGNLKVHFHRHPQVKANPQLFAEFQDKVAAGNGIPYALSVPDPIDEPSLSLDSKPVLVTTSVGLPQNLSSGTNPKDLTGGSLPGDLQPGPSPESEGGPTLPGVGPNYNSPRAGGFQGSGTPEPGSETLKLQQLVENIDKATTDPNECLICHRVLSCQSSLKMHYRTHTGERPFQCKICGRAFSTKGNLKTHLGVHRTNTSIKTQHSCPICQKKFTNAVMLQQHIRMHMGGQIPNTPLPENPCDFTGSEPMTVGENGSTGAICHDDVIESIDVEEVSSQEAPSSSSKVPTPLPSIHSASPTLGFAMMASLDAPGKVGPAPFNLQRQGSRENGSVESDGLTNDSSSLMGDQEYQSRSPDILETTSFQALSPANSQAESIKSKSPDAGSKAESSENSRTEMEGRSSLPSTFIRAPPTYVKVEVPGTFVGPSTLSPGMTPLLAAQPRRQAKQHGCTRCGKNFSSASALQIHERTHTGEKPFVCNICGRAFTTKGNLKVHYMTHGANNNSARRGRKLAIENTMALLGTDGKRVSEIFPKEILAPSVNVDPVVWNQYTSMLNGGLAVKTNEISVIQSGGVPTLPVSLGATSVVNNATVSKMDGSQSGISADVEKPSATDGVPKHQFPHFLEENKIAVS
Technique: universal PBM
Molecule type: double-stranded DNA, one strand shown
Sample: in vitro
Tested at: 600 nM
Setting: 8-mer, flanks averaged, mean of replicates
Direction: higher = stronger binding
`CCCTGGGC` gave an E-score of -0.432.
The E-score of `ATTTATCA` is reported as 0.299.
The E-score of `TAAGTTGA` is reported as 0.0693.
`ACCTTCCC` has an E-score of -0.0986.
`AGTAGTTC` gave an E-score of 0.0486.
The E-score of `GGTGGGAC` is reported as -0.223.
`GAGCTGAC` gave an E-score of -0.209.
`AACCCTAT` gave an E-score of 0.0398.

Block 2
Target: Hepatocyte nuclear factor 3-beta, forkhead domain (FOXA2, Homo sapiens, UniProt Q9Y261, residues 142-269)
Technique: protein-binding microarray
Molecule type: hairpin DNA
Sample: in vitro
Tested at: not given
Setting: whole hairpin DNA, median over replicate spots
Reference: not given
Direction: higher = stronger binding
Constant ends, left off below: GAGGCCAT … ATGGCCTCACACTC
Construct (chain): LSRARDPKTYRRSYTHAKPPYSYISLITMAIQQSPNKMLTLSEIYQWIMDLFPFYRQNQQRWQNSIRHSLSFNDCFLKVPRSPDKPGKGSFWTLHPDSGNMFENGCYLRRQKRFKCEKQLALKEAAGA
`GCAAACAAGGCCTCCTGGCCTTGTTTGC` gave a median fluorescence of 3330 a.u.
The median fluorescence of `GTAACGAACGCCTCCTGGCGTTCGTTAC (5mC at 13 31)` is reported as 3180 a.u.
The median fluorescence of `GTAACCGACGCCTCCTGGCGTCGGTTAC` is reported as 3430 a.u.
The median fluorescence of `GCAGACAACGCCTCCTGGCGTTGTCTGC (5mC at 33)` is reported as 3430 a.u.
For `GTAATCAACGCCTCCTGGCGTTGATTAC`, the median fluorescence was 3150 a.u.
`CGAAACAACGCCTCCTGGCGTTGTTTCG (5mC at 9 35)` gave a median fluorescence of 3100 a.u.
`GTAACAAACGCCTCCTGGCGTTTGTTAC` gave a median fluorescence of 3270 a.u.
The median fluorescence of `GTACGCAACGCCTCCTGGCGTTGCGTAC` is reported as 3430 a.u.

Block 3
Target: RING finger protein unkempt homolog, zinc fingers 1-6, GST-SBP tag (UNK, Homo sapiens, UniProt Q9C0B0, residues 30-357)
Sequence of UniProt Q9C0B0 (30-357, looked up): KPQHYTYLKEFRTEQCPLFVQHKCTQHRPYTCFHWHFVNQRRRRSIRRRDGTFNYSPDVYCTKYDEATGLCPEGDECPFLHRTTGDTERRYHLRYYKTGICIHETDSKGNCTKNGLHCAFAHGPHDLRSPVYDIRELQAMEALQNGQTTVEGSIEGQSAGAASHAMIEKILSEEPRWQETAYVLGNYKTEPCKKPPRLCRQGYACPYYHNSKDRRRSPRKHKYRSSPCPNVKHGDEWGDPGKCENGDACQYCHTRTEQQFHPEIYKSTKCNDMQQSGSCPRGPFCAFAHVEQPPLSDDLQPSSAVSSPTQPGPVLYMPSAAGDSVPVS
Technique: RNA Bind-n-Seq
Molecule type: RNA
Sample: in vitro
Tested at: not given
Setting: RNA with constant flanks, human and mouse sites, ends assumed
Reference: input RNA pool
Direction: higher = stronger binding
Constant ends, left off below: GGGAGUUCUACAGUCCGACGAUC … CAACAGAGGAUUGAGCAUCA
For `AAAAAUUUUUUAUUAAAAAAAAUAAAAGAAAAGGACUCCGUCACUGUUACAUUUUUUCCCUCGUUUUACAAUUCUGGUGUGUGACCGAGACAGCCCACGGGAGACGCUGCCGUGAGGUGG`, the bound/input enrichment was 0.39 ratio.
`GAAGAUGAAGCUAAUGUAGCCUGGAAGUAUUACAAAGUCCCAAAGAAAAAAGAUGUAGAAUUUUUACCACCUCAACUUCCAAAUGAUAAAUUCAAGGAUGAUCCAGUUGGACCUUUUGGA` has a bound/input enrichment of 0.386 ratio.
For `UUCCUGUUACCUUGAAAAAAUAAAAAUGUUAACAGGAAUGCAGUGUGCUCAUUCUCCCUAAAUAGUAAAUCCCACUGUAUACAAAACUGUUCUCUUGUUCUGCCUUUUAAAAUGUUCAUG`, the bound/input enrichment was 0.992 ratio.
`CAACUGUUGUGAUGAAAAUGGCACCAGGAAGAAGGCUCUAUUUUUCCACUGAAGUUGAAGAUUAGUAAAAUGGUGUCAGAUGGUGACCCUGCUCGCACGCUUUAGUAAUUUUUUAAAGUG` has a bound/input enrichment of 3.79 ratio.
`UUUUUGAAGGGUGUGAUGCUUGGAAGCAUCUUCUGUGCCUUGAUCACUAUGCUAGGCCACAUUAGGAUUGGAAACAGAAUGCACCACCAUGAGCAUCACCAUCUGCAAGCCCCUAACAAA` has a bound/input enrichment of 0.112 ratio.
`CACAAGUGGAUGGUACUUUUGGAAACUGAACUCUUGUUGUUUUGUUUUUUUAUUGUAAGUCUUAGCCCUUAAUGGCUGAGUUGUCUCUUUAACCAGGAUGGCACUUUUAGGAAUGGUGAC` gave a bound/input enrichment of 6.24 ratio.
`UCCAAAGUUGUCCGUGUUAGAGCAGAUUUGCUUGACGAGUUAAUUAAAUCAGGGCAGUUACUAGGCGUGAAAUUUAUAGCAGAGCUUGGUGUCCCACUGUCACAGGUUAAAAGCAUAUCA` has a bound/input enrichment of 0.371 ratio.
`UGAAGAUUCCAGAUGCUAAACAUGUAUUUACCACAUUUUAUGCUAAAACAAAAUCACUGUUAGUUAAUCCAGUGCUCUUUCCAAACCGUGAAGACUAUAUCCAUCUAAUGGGUUAUGACA` gave a bound/input enrichment of 0.38 ratio.

Other studies, line by line
With `C=C1COC(c2cc(C)cc(C)c2)c2c(C(C)C)c(OC)nc(=O)n21` (stereo not shown) the remaining compound was 11.2% (mouse, microsomes or S9; 2 µM, 0.5 h).

Some of these lines once more (other studies, line by line):
With `C=C1COC(c2cc(C)cc(C)c2)c2c(C(C)C)c(OC)nc(=O)n21` (stereo not shown) the remaining compound was 11.2% (mouse, microsomes or S9; 2 µM, 0.5 h).
